Measured values gathered from unrelated publications.
A part holds a random share of what one study measured.

Set 1 — method: protein-binding microarray; molecule type: double-stranded DNA, one strand shown; medium: in vitro; tested at: 940 nM top; setting: 60-bp whole probe; together with: salmon DNA 0.4 mg/ml; relative to: random background probes; direction: higher = stronger binding; all sequences stand within: GCCTAGCAC … GTCTTGATTCGCTTGACGCTGCTG
Target: Interferon regulatory factor 5, full length, phosphomimetic (IRF5, Homo sapiens, UniProt Q13568-2, residues 1-514, S451D/S453D/S456D/S462D)
| Strand | fitted relative affinity [z-score] |
| --- | --- |
| TTAGATATCAGACTGGAATAGTGCTAG | -0.353 |
| TTAGGTCTCCTACTGCGTTAGTGCTAG | -0.399 |
| GACGATATCAGTATCGTGACGTGCTAG | 0.27 |
| GACGATTTCAGACTGAAGACGTGCTAG | -0.511 |
| GTATGGATGTGTTTTAAATAGTGCTAG | 0.364 |
| TTTTTTTTTGGAATGTCTTCGTGCTAG | 0.831 |
| TTAGATTCCGGTTTCGATTAGTGCTAG | 7.87 |
| GACAGTTTCGGGTATCGGGACGTGCTA | 10.8 |
| GACGATTTCAGTATAGAGACGTGCTAG | 0.429 |
| GACGGACTGGACTTTAGGGACGTGCTA | -0.736 |
| TTAGATATCAGACTGTATTAGTGCTAG | -0.227 |
| TCATATTTGCTTCAGGTACTGTGCTAG | 0.138 |
| TCATAATTCCTGCCTGAGACTGTGCTA | 0.635 |
| GACGATTCCAGTTTCGAGAAGTGCTAG | 4.09 |
| TCAGATTTTCCCATGAGACTGTGCTAG | 0.67 |
| TTAGAACCGGGGTATCGATTAGTGCTA | 3.1 |

Set 2 — method: RNA Bind-n-Seq; molecule type: RNA; medium: in vitro; tested at: 200 nM; setting: whole 134-nt RNA, ends assumed; together with: 150 mM KCl; relative to: input library; direction: higher = stronger binding
Target: Fragile X messenger ribonucleoprotein 1, C-terminal low-complexity region (Fmr1, Mus musculus, UniProt P35922)
| Strand | log2 enrichment |
| --- | --- |
| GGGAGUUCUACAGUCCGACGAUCGCAGGAAGUAAAAACAAAUGGAAAUGCUUCGGAUAGUGGAAGGGGUGGGGGUUGCUAAGGAAAGGGUGGGAUGGGAGUGGGUAAAGAGUUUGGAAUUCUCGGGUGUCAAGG | 0.159 |
| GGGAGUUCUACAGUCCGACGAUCGCAGGAAGUAAAAACAAAUGGAAAUGCUUCGGAUAGUGGCAGGGGUGGGGGUUGCUACGGAAAGGGUGGGAUGGGAGUGGGUAAAGAGUUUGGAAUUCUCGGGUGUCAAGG | 0.0238 |
| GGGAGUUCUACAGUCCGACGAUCGUCCUGUGCUACACAUCGUAUGUACCGAAUCAAACCCCCAAAUUUUUAAAUUUUUAAAAAAGUAUUAUGUUACGCCGUUCGGAUCUGCACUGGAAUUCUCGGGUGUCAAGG | 0.276 |
| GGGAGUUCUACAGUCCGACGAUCCCUCAAGUCCUGUGCUACACAUCGUAUGUACCGAAUCGGGAGGGAGGGAGGGGAAAGUAUUAUGUUACGCCGUUCGGAUCUGCACUUCCAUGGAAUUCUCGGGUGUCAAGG | 1.01 |
| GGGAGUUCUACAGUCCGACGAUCCAAGUCCUGUGCUACACAUCGUAUGUACCGAAUCGGUUUGGUUUUUGGUUUUUGGAAAGUAUUAUGUUACGCCGUUCGGAUCUGCACUUCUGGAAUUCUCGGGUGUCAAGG | -0.499 |
| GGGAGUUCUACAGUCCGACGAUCCACAGACAACACGCACCCACACAGGCACAGAGGGAAGGGGUUGGGAUGGGGACAGGGUGCACAGCAGGGCGGGGUAGGACCCCAGCCCCUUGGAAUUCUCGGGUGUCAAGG | 1.2 |
| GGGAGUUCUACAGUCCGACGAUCUCCUGUGCUACACAUCGUAUGUACCGAAUCGGGAAAAAAGGAAAAAAGGGGAAAAAAGGGAAAGUAUUAUGUUACGCCGUUCGGAUCUGCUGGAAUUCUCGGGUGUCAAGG | -0.451 |
| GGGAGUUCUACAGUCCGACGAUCCCUCAAGUCCUGUGCUACACAUCGUAUGUACCGAAUCGGAGGGGAGGGGAGGGAAAGUAUUAUGUUACGCCGUUCGGAUCUGCACUUCCAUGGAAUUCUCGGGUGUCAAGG | 1.16 |
| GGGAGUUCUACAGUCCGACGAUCAGUCCUGUGCUACACAUCGUAUGUACCGAAUCGGGGAAAGGGGAAAGGGGUUUGGGGAAAGUAUUAUGUUACGCCGUUCGGAUCUGCACUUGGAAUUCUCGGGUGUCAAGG | 0.452 |
| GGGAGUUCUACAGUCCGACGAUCAAGUCCUGUGCUACACAUCGUAUGUACCGAAUCAAACCCAAACCCAAAUUUUUAAAAAAGUAUUAUGUUACGCCGUUCGGAUCUGCACUUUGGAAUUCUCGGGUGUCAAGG | -0.201 |

Set 3 — method: RNA Bind-n-Seq; molecule type: RNA; medium: in vitro; tested at: 15 pmol; setting: 4-mer, random 30-nt RNA, single round; together with: 3 µM RocA, 2 mM AMP-PNP; relative to: mean of 4-mers; direction: higher = stronger binding
Target: Eukaryotic initiation factor 4A-I (EIF4A1, Homo sapiens, UniProt P60842, residues 1-406, full length assumed)
UniProt P60842, sequence (whole entry, looked up): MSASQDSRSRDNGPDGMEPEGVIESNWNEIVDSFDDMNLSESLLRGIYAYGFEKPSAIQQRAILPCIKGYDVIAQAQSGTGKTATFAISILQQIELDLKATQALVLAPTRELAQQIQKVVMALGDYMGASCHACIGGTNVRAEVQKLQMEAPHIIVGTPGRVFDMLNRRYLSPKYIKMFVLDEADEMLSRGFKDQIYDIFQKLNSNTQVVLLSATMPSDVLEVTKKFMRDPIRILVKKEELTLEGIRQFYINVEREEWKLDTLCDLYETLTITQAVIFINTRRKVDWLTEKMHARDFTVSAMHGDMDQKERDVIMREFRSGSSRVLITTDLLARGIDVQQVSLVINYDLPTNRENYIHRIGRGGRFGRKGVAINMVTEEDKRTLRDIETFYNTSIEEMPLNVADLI
| Strand | 4-mer enrichment Z-score |
| --- | --- |
| ACGG | 0.131 |
| UCUA | -0.685 |
| UUGA | 0.869 |
| CCAG | -0.773 |
| GACG | 0.0535 |
| CUCA | -1.57 |
| CAUA | -0.983 |
| UCGU | -0.601 |
| UCUU | -0.801 |
| AGAU | 0.734 |
| AUUA | 0.0873 |
| ACUA | -0.501 |
| GAAU | 1.59 |
| CUGU | -0.216 |
| CGGU | 0.185 |
| UGCC | -0.808 |

Set 4 — method: RNA Bind-n-Seq; molecule type: RNA; medium: in vitro; tested at: 365 nM; relative to: no-protein control; direction: higher = stronger binding
Target: RNA binding protein fox-1 homolog 2, RRM domain, GST-SBP tag (RBFOX2, Homo sapiens, UniProt O43251-10, residues 100-194)
Setting: natural RNA segment, single round, ends assumed
Target sequence (chain): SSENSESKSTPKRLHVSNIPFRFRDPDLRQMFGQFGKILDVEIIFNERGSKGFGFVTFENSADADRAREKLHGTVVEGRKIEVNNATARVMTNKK
| Strand | RBNS enrichment (R) |
| --- | --- |
| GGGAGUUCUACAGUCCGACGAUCGAUUUUAAAUGUGUCUAAGGAGAAAACAGAGUUGAAUUAUGGCGUUAAAAUAAAAUUUACUACCAAAAUAUCAAGACCUCUGUCCUCACGGUUAUAUAGAAGCGCUGGUCUGGAAUUCUCGGGUGCCAA | 0.286 |
| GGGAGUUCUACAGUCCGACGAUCGCUGCUGACGUUCUGAGCCAGGCAAGUGCACGGGGCUGUUGGAUGGCCAGUGGGGAGCUGGAAAAAACAAGGCAGCCUUUAGGAAGGCCAUGGUGCAUGUGUGUGCAUGCUGGAAUUCUCGGGUGCCAA | 2.11 |
| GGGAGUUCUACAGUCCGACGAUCAAGAGACAGCAGCUCCUGGUCAACCACCUUAGUUAGAUAAUCUUUUUUGAAAGCUUCCUAGCUGGAGGUAUGAUCAGAAAACCAAUUUACUGAAAAACUGCACAAGAAGGUGGAAUUCUCGGGUGCCAA | 0.436 |
| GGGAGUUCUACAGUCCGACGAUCAGGGGUUGAUGGUGGAUGAAAUUGAUUUCUGGCUGGUUACUAAGGUGCCUGCUAGCCAUUGUAUAAAAUUAAAACAUGAAGAAUAUUUGUUUUGAGCAUGGCUAGUGGAUUGGAAUUCUCGGGUGCCAA | 1.45 |
| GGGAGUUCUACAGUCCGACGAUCCUCCUGCUUGCUUCCAAAGUGAUGGACAGGAAGGGGCAGAGUGAGUCACGGCCCAGACUGGGCACCUUCGCGUCUCAGCCUCAGGGAGCCCCACAGCCCCAAGCUCGCUGUGGAAUUCUCGGGUGCCAA | 0.391 |
| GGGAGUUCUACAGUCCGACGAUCCUCCACUGUCUAUGUAGGUUGUGGGUGUGGGGAGGUUGAGGUAGAGGGAAGAGGGUCGAGAGGGUUCCACUGUCUUGAGAGCUUCCUUUUGCUUUCUUCUCUUGCCUCUGUGGAAUUCUCGGGUGCCAA | 0.728 |
| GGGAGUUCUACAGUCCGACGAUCCCGUGGUCUGACUUGACCCUGGGCCUUUUGGACACAGGUCAGCCUUCUGAUGUUUUCUGGCUGUCUUAGCAUUCGCCUUUUCUCUUGCCAGCCAGUUCUGGGGAUUCAGAUGGAAUUCUCGGGUGCCAA | 0.325 |
| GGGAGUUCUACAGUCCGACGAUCGUUCCAUUUCACCUCAGAUGGCAGCUUGCCUGGCAGUGGACUUAGAGUGUUCUAGUCUGAUGUAUGUGGGGUUUCCUGCCCUGUUGGACCAAAGUUUCCAUGGUCCUAUGUGGAAUUCUCGGGUGCCAA | 0.297 |
| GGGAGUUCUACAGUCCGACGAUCAAAAACUCUUAAGAGUUCCUUUAUAUCAUAUUCUUCAGAGCCAACAUUUGUCCUCAAAGCAACGUUUCCCACCUCCUUUUACUGAGUACUGAAAAAGUUUUAGCAAAGUCUGGAAUUCUCGGGUGCCAA | 0.443 |
| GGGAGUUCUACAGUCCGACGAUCGAUGUUCUAAACAACCAAACUAAAGCUGUGUACAGAUUGGGUUUGGAGCGGUGGGGACGUCAGCAGGAAACGCCAGUGCUUUGCUGCCUGAUUGACAGGAAUUUGCUGUCUGGAAUUCUCGGGUGCCAA | 0.274 |
| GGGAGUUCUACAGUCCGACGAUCGUGGGACUUAGUGGUGAGACACUGGUUGAUCUCUUAGAAGCCCUGGGACACGCCCUCCCUCAUUCAUCUUGCAAGCGAAGCGAAUCCUUUUUCUUGAGAAGCCUCAGAGAUGGAAUUCUCGGGUGCCAA | 0.571 |
| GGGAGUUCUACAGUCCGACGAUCCCACUUCCCGUGCCUAUGAUUUGCUCUAGCAUUUCUGCCACCUGACAAGGAGAGGAGCUUGCUAAAGUUUAAAGUUUAUUUCAACGCUAAGAUCCCAACCUUCCGAUCUCUGGAAUUCUCGGGUGCCAA | 0.377 |

Excerpt of the above (set 3):
| Strand | 4-mer enrichment Z-score |
| --- | --- |
| UCUU | -0.801 |
| AGAU | 0.734 |
| AUUA | 0.0873 |
| ACUA | -0.501 |
